Published values from different studies.
Lines come from different studies, so protocols differ. Values joined by “and” are separate records of one study, mostly repeats; a detail may differ. Values after ≈ are worked out from the molar mass of the structure shown.
Organism: Staphylococcus aureus

Compound = CC[C@H](C)[C@H](NC(=O)[C@H](Cc1ccccc1)NC(=O)[C@@H](NC(=O)[C@H](Cc1ccccc1)NC(=O)[C@@H]1CCCN1C(=O)[C@@H](NC(=O)[C@H](C)N)[C@@H](C)CC)[C@@H](C)CC)C(=O)N[C@@H](Cc1c[nH]c2ccccc12)C(=O)N[C@@H](CCCNC(=N)N)C(=O)N[C@@H](CC(C)C)C(=O)N[C@@H](CC(C)C)C(=O)N[C@@H](CCCNC(=N)N)C(=O)N[C@@H](CCCCN)C(=O)NCC(N)=O; system = ATCC 19609; conditions = 18 h, 37 °C; endpoint = MBC; value = 1.88 µM (≈ 3.25 µg/mL)
Compound = CN[C@H](CC(C)C)C(=O)N[C@H]1C(=O)N[C@@H](CC(N)=O)C(=O)N[C@H]2C(=O)N[C@H]3C(=O)N[C@H](C(=O)N[C@H](C(=O)O)c4cc(O)cc(O)c4-c4cc3ccc4O)[C@H](O)c3ccc(c(Cl)c3)Oc3cc2cc(c3O[C@@H]2O[C@H](CO)[C@@H](O)[C@H](O)[C@H]2O[C@H]2C[C@](C)(N)[C@H](O)[C@H](C)O2)Oc2ccc(cc2Cl)[C@H]1O; system = ATCC 33591 MRSA; conditions = 1×MIC; endpoint = biofilm inhibition; value = 95.2%
Compound = CCc1c([N+](=O)[O-])oc2ccc3ccccc3c12; assay = REMA; endpoint = MIC90; value = 2 µg/mL (≈ 8.29 µM)
Compound = COC1=CC(=O)c2c(O)c3c(c(O)c2C1=O)O[C@]1(Oc2c(cc4cc(C)oc(=O)c4c2O)[C@@H](O)[C@@H]1O)[C@@H]3O; assay = RNA-Seq, refers to: lexA; system = MRSA ATCC 433000; conditions = MIC, 12 h; how to read = relative to: untreated; endpoint = log2 fold change; value = -2.95
Compound = O=C(O)c1cn(C2CC2)c2cc(N3CCNCC3)c(F)cc2c1=O; system = MRSA ATCC 33591; conditions = 1/2 × MIC; endpoint = biofilm inhibition; value = 90.5%
Compound = O=[N+]([O-])c1cc2cc3ccc4oc([N+](=O)[O-])cc4c3cc2o1; assay = REMA; endpoint = MIC90; value = 4 µg/mL (≈ 13.4 µM)
Compound = CN[C@H](CC(C)C)C(=O)N[C@H]1C(=O)N[C@@H](CC(N)=O)C(=O)N[C@H]2C(=O)N[C@H]3C(=O)N[C@H](C(=O)N[C@H](C(=O)O)c4cc(O)cc(O)c4-c4cc3ccc4O)[C@H](O)c3ccc(c(Cl)c3)Oc3cc2cc(c3O[C@@H]2O[C@H](CO)[C@@H](O)[C@H](O)[C@H]2O[C@H]2C[C@](C)(N)[C@H](O)[C@H](C)O2)Oc2ccc(cc2Cl)[C@H]1O; system = 29213; conditions = 30 days; how to read = relative to: initial MIC; endpoint = MIC increase; value = 8 fold
Compound = Cc1c2c(nn1C)CSCc1cc(n(C)n1)CSc1cc(c3ccccc3c1)OCCCc1c(C(=O)O)n(C)c3c-2c(Cl)ccc13; assay = label-free quantitative proteomics, refers to: SAOUHSC_01399 protein; system = SA113; conditions = concentration not given; how to read = relative to: untreated control; endpoint = fold change; value = 9.51
Compound = CCCCCCCCCC(=O)N[C@@H](Cc1c[nH]c2ccccc12)C(=O)N[C@H](CC(N)=O)C(=O)N[C@@H](CC(=O)O)C(=O)N[C@@H]1C(=O)NCC(=O)N[C@@H](CCCN)C(=O)N[C@@H](CC(=O)O)C(=O)N[C@H](C)C(=O)N[C@@H](CC(=O)O)C(=O)NCC(=O)N[C@H](CO)C(=O)N[C@@H]([C@H](C)CC(=O)O)C(=O)N[C@@H](CC(=O)c2ccccc2N)C(=O)O[C@@H]1C; system = ATCC 700699, MRSA; conditions = 4 × MIC; endpoint = time to kill below detection; value = ≤ 10 h
Compound = CC[C@H](C)[C@H](NC(=O)[C@H](CCCNC(=N)N)NC(=O)[C@H](CCCNC(=N)N)NC(=O)[C@@H](N)CCCNC(=N)N)C(=O)N[C@@H](CO)C(=O)N[C@@H](Cc1ccccc1)C(=O)N[C@@H](CC(C)C)C(=O)NCC(=O)N[C@@H](CO)C(=O)N[C@@H](CCCCN)C(=O)N[C@H](C(=O)N[C@H](C(=O)N[C@H](C(=O)N[C@@H](CCCNC(=N)N)C(=O)N[C@@H](CCCNC(=N)N)C(=O)N[C@@H](CCCCN)C(=O)N[C@@H](CCCNC(=N)N)C(N)=O)C(C)C)C(C)C)C(C)C; assay = checkerboard; conditions = unit not given, together with: oritavancin; how to read = lower means synergy; endpoint = FICI; value = 0.08
Compound = CC[C@H](C)[C@H](NC(=O)[C@H](Cc1c[nH]c2ccccc12)NC(=O)[C@@H](NC(=O)[C@H](Cc1c[nH]c2ccccc12)NC(=O)[C@@H]1CCCN1C(=O)[C@@H](NC(=O)[C@H](C)N)[C@@H](C)CC)[C@@H](C)CC)C(=O)N[C@@H](Cc1c[nH]c2ccccc12)C(=O)N[C@@H](CCCNC(=N)N)C(=O)N[C@@H](CC(C)C)C(=O)N[C@@H](CC(C)C)C(=O)N[C@@H](CCCNC(=N)N)C(=O)N[C@@H](CCCCN)C(=O)NCC(N)=O; system = ATCC 35556; conditions = 18 h, 37 °C; endpoint = MBC; value = 3.75 µM (≈ 6.78 µg/mL)
Compound = CC[C@H]1OC(=O)[C@H](C)[C@@H](O[C@H]2C[C@@](C)(OC)[C@@H](O)[C@H](C)O2)[C@H](C)[C@@H](O[C@@H]2O[C@H](C)C[C@H](N(C)C)[C@H]2O)[C@](C)(O)C[C@@H](C)CN(C)[C@H](C)[C@@H](O)[C@]1(C)O; endpoint = MIC90; value = > 32 µg/mL
Compound = OB(O)c1csc2ccccc12; assay = crystal violet; system = USA300 wild type; conditions = 1 µM; how to read = relative to: wild type untreated; endpoint = biofilm formation; value = 79.3% and 83% and 82%
Compound = CCOC(=O)COc1ccc2ccc3oc([N+](=O)[O-])cc3c2c1; assay = REMA; endpoint = MIC90; value = 4 µg/mL (≈ 12.7 µM)
Compound = CC[C@H](C)[C@H](N)C(=O)N[C@@H](CC(C)C)C(=O)NCC(=O)N[C@@H](CCC(=O)O)C(=O)N[C@H](C(=O)N[C@@H](Cc1c[nH]c2ccccc12)C(=O)N[C@@H](CCCCN)C(=O)NCC(=O)N[C@H](C(=O)N[C@@H](CCCCN)C(=O)N[C@@H](CC(=O)O)C(=O)N[C@H](C(=O)N[C@@H](CC(C)C)C(N)=O)[C@@H](C)CC)[C@@H](C)CC)[C@@H](C)CC; assay = broth microdilution; system = ATCC 25923; conditions = together with: human serum 10%; endpoint = MIC; value = > 100 µM
Compound = CC(C)[C@@H]1NC(=O)CNC(=O)[C@H](CC(N)=O)NC(=O)[C@H](CCCNC(=N)N)NC(=O)[C@H](Cc2ccc(O)cc2)NC(=O)[C@H](C(C)C)NC(=O)[C@@H](NC(=O)[C@@H](NC(=O)[C@H](CC(N)=O)NC(=O)[C@H](Cc2c[nH]c3ccccc23)NC(=O)[C@H](C)NC(=O)[C@H](Cc2ccccc2)NC(=O)CN)C(C)C)CSSC[C@@H](C(=O)N[C@@H](Cc2c[nH]cn2)C(=O)N[C@@H](CCCNC(=N)N)C(=O)N[C@@H](CCCNC(=N)N)C(=O)N[C@@H](C)C(=O)N[C@@H](CC(N)=O)C(N)=O)NC(=O)[C@H](C(C)C)NC(=O)[C@H](CCCNC(=N)N)NC1=O; assay = bactericidal activity; system = ATCC 43300; conditions = 24 h; endpoint = EC50; value = 5.08 µM
Compound = CCCCCC(=O)N[C@@H](CCCNC(=N)N)C(=O)N[C@@H](CCCNC(=N)N)C(=O)N[C@@H](CCCNC(=N)N)C(=O)N[C@@H](CCCNC(=N)N)C(=O)N[C@H](C(=O)N[C@@H](CC(C)C)C(=O)N[C@H](C(=O)N[C@@H](CCCNC(=N)N)C(=O)N[C@@H](CCCNC(=N)N)C(=O)N[C@H](C(=O)N[C@@H](CC(C)C)C(=O)N[C@@H](CCCNC(=N)N)C(=O)N[C@@H](CC(C)C)C(=O)N[C@@H](CCCNC(=N)N)C(=O)N[C@@H](CO)C(=O)N[C@@H](CO)C(=O)N[C@@H](C)C(=O)N[C@@H](Cc1ccc(O)cc1)C(N)=O)C(C)C)[C@@H](C)CC)[C@@H](C)CC; assay = checkerboard; conditions = unit not given, together with: oritavancin; how to read = lower means synergy; endpoint = FICI; value = ~0.19
Compound = CO[C@@]1(NC(=O)Cc2cccs2)C(=O)N2C(C(=O)O)=C(COC(N)=O)CS[C@@H]21; system = ATCC 25923; conditions = 64 µg per disk; endpoint = inhibition zone diameter; value = 23 mm

Repeated from above:
Compound = O=C(O)c1cn(C2CC2)c2cc(N3CCNCC3)c(F)cc2c1=O; system = MRSA ATCC 33591; conditions = 1/2 × MIC; endpoint = biofilm inhibition; value = 90.5%
Compound = O=[N+]([O-])c1cc2cc3ccc4oc([N+](=O)[O-])cc4c3cc2o1; assay = REMA; endpoint = MIC90; value = 4 µg/mL (≈ 13.4 µM)
